Experimental data collected from several papers.
A part holds a random share of what one study measured. Substitutions count along the parent as printed.

Study 1 — technique: protein binding microarray; molecule type: double-stranded DNA, one strand shown; medium: in vitro; tested at: not given; reference: not given; reading: higher = stronger binding
Target: Histone acetyltransferase KAT6A, winged helix 1, GST fusion (KAT6A, Homo sapiens, UniProt Q92794, residues 1-85)
Notes: 8-mer, flanks averaged, mean of 2 arrays, mostly near background
Construct (chain): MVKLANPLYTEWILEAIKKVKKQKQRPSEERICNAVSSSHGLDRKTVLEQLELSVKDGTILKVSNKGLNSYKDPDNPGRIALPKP
Strand	E-score
ATACGGGG	0.223
AAACGCCG	0.362
CAACTCGA	-0.283
AGCACTGG	-0.172
CACGTGGA	-0.213
CACGGTCG	0.196
GCAACATA	-0.097
CGGAACTA	0.123
CCACAGTA	-0.135
ATTCGCAA	-0.0241
CGCTAGTC	0.119
AACGTCCT	-0.0786
CCTCCATC	-0.11
AGCTGGTG	-0.197

Study 2 — technique: protein-binding microarray; molecule type: double-stranded DNA, one strand shown; medium: in vitro; tested at: 250 nM; notes: 60-bp whole probe; added: salmon DNA 0.4 mg/ml; reference: random background probes; reading: higher = stronger binding; shared flanks, not repeated: GCCTAGCAC … GTCTTGATTCGCTTGACGCTGCTG
Target: Interferon regulatory factor 7, full length, phosphomimetic (IRF7, Homo sapiens, UniProt Q92985, residues 1-503, S101K/S471D/S472D/S475D/S476D/S477D/S483D/S484D/S487D)
Construct (chain): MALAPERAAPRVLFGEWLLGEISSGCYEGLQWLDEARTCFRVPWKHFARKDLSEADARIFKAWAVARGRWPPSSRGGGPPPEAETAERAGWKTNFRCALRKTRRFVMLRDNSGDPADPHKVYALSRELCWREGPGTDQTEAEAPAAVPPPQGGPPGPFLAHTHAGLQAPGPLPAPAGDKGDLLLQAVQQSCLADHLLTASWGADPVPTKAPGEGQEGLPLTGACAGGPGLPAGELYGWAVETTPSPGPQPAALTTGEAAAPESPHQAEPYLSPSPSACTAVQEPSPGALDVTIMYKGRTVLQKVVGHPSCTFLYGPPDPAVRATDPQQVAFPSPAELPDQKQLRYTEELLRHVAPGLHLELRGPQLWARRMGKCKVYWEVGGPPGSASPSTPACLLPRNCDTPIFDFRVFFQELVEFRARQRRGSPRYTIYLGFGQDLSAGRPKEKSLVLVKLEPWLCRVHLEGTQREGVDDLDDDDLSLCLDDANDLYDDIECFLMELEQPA
Strand	log fluorescence
GACGGTTTCGGGCTGGGGACGTGCTAG	3.21 z-score
TTACATTTCGGGTTTCGATTAGTGCTA	7.58 z-score
GACGGACTGGGACTTGGGACGTGCTAG	-0.747 z-score
TGGAGAGCATATTCTGTGACGTGCTAG	-1.08 z-score
GACGATATCAGACTGGAGATGTGCTAG	-0.221 z-score
GACGGACTGCGACTGCTGACGTGCTAG	-0.884 z-score
TTAGATTTCAGTTCGGATTAGTGCTAG	1.08 z-score
GACGGTTTCGAATTTCGGGACGTGCTA	8.99 z-score
TTAGGTTTCCTACTGATTTAGTGCTAG	0.98 z-score
GACGGACTGGGACTGGGGAGGTGCTAG	-0.583 z-score
GGCCAAACAGTATTAAACTCGTGCTAG	-0.423 z-score
GTAGGTATCGGGTTTCGGTTAGTGCTA	6.41 z-score

Study 3 — technique: RNA Bind-n-Seq; molecule type: RNA; medium: in vitro; tested at: 365 nM; reference: no-protein control; reading: higher = stronger binding
Target: RNA binding protein fox-1 homolog 2, RRM domain, GST-SBP tag (RBFOX2, Homo sapiens, UniProt O43251-10, residues 100-194)
Notes: natural RNA segment, single round, ends assumed
Shared flanks, not repeated: GGGAGUUCUACAGUCCGACGAUC … UGGAAUUCUCGGGUGCCAA
Residues (chain): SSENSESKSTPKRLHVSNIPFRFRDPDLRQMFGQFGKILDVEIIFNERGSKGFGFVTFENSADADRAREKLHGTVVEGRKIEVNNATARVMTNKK
Strand	RBNS enrichment (R)
CAGUGCAUGCCCCACAGGGAGAAGCCUUCCUUCUCACCCAGGGAGUCCAGCCAUUUUCACCUCCCCUGGUCCAUGCUCAGGAAGUCUGGUCACCCUGGCAAACUGCACCU	1.78
ACUAGUAUGUGUGCGUGAGCUGGUCAGUUGCCAAAGGAGGAAAUAAGGUUAGAAGCCUGAACCGUUACAAAAGAAGAGCUCACUAUGGUCAAAAAGUGAUGGCUUUCAGG	1.22
GCCAACCCUGGGAAAUGCUAAUCAUGACCUUCACACCAAACAUUCAGAAGUAGGCUGUGUCCCAUCAGAUCAAUCUGCACCUUCCUGUGGUUGUGCAAACAUCACGGGGC	0.288
UGAAAAUCACAUUUUGAUACAAACACCAGAUUUGAAAGUUCAAUGUGUUUGAUCUCAGGAGUCCAAAAUAAGUUGUUGCUUCUAGUGUCCUGCAUUUUAUUGACUGGGGU	0.567
GGGAGCACGGUUCUGGGAGCUCUGCAAAAUCAGUAGCAAGUGCUGGAAAAGGCACAUGCCGAAGAUACUCAAGAGCUCCCAAGAUUUGCUUGAGGCUAGCCCAGUGAAAA	0.531
CAAUUUCUAGAGUAGUUUUGAAUGGGUUGAUUUCCCCCACUCCCACAAACUCUGAAGCCAGUGUCUAGCUUACUAAAAAAAGAGUUGUAUAUAAUAUUUAAGAUGCUGAG	0.587
UACAUUCUCUACACUCUAACAUUAACAUAUCUAUUCAAAUUUGUCUAGUUGCCAAUUGUCUUCAGAGUGUGAAAAUUUAAAUCCUUCUUGAAGUAUCUUUCGUGAGAGUA	0.322
GUGAAUUGAUUUAUAAAUUGCUAUGCUUUGCUGUUUUUCUGUUGCUGUGGAACUUAAAGAAUGUGAAAGCUGUCAAAGGGUAUUUUACGAAUCACUUUUGUGUUUGAUAU	2.21
UGGGGGGCGCUGAGUAGGGACUCAGGGCCAUGCCUGCCCCCCUCAUCUCAUUCAAACCCCACCCUAGUUUCCCUGAAGGAACAUUCCUUAGUCUCAAGGGCUAGCAUCCC	0.322
GCUUGCAAAUGAAUUGCUAGUCCCUCAUUGUGCGGGUCUAUGUGGAGCUUUAAUCAGUAAAUGUCUCCACUUCCUAUAUUACAUUAACGUUGGCUCAUGCAUAUAACCAC	7.65
CACUUAUAAUUUCUACUACUGCACUACUGUCCAUUGUGGGAUGAUUAAACAUGGUAUUUAACUGUGCCUCUGUCUGCUGGGUGUGCUGCUUCACGCUACGUCUCGGACCC	0.338
UUUGUAAACUUUGAAAUAUAUGGUCUAAUGUUUAAGCAGAAUUGGAAAAGACUAAGAUCGGUUAACAAAUAACAACUUUUUUUUCUUUUUUUCUUUUGUUUUUUGAAGUG	0.654

Study 4 — technique: RNAcompete; molecule type: RNA; medium: in vitro; tested at: 20 nM; notes: 7-mer, probes averaged, single round; reference: mean of 7-mers; reading: higher = stronger binding
Target: PABPC1L2, full length, GST fusion (mouse, UniProt A0ABA7IW68)
Construct (chain): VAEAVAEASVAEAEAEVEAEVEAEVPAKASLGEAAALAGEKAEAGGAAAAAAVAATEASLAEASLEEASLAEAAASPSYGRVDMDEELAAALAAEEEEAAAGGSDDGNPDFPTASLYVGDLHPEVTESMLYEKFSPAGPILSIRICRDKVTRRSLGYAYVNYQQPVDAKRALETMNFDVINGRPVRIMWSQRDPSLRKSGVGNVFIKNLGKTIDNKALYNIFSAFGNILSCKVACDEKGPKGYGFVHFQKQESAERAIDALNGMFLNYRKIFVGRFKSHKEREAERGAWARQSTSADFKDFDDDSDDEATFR
Strand	7-mer Z-score
GUGGUUU	-0.335
GGGUCCU	-0.0373
GAAGUGG	0.14
ACGUCCA	-0.0283
GAAUUUC	-0.373
ACAUUGA	0.187
GCCUCCA	-0.387
UUCAAAC	-0.146
GAGGUCG	-0.132
CGUCCAG	-0.195
CUUUCGC	-0.34

Study 5 — target: CCNF, cyclin fold, Cln2 fusion (human); technique: yeast growth competition, sequencing; medium: yeast; notes: strong parent motif; reference: not given; reading: higher = stronger binding
Starting sequence: SCAPER docking peptide (human); SNARRSLNFGGST
Change	normalised enrichment score
N8G	4.07
G11T	7.54
S6K	9.14
S6T	6.64
L7C	0.784
S1M	7.74
A3S	2.56
F9R	1.25
R5I	1.02
N8S	6.1
S1V	8.59
T13Y	7.31
S1K	7.27
A3F	4.17
R5K	3.94
G11H	6.81
S1G	7.91

Study 6 — technique: DHFR PCA, deep sequencing; medium: yeast; added: (+)-ABA 4.8 µM; reference: wild-type fitted maximum; reading: higher = stronger binding
Target: ABI1, truncated, D143A, DHFR fusion (Arabidopsis thaliana)
Notes: methotrexate growth selection, single substitutions
Starting sequence: PYL1, truncated, DHFR fusion (Arabidopsis thaliana); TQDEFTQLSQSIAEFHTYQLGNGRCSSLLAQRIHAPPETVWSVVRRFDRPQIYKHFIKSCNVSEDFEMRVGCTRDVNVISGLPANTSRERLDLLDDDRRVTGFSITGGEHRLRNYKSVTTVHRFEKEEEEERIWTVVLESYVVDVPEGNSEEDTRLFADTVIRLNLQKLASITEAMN
Change	relative binding score [%]
R155P	-9.47
D3W	64
P83M	11.8
A175D	74.9
R24T	65.5
V70M	27
E147C	54.6
T86K	54.3
I52Y	51.7
R90N	0.475
Y141C	8.98
V161K	-1.21
